Published values from different studies.
Each numbered part is a random draw from the data of one study; scales do not carry over between parts. Several values in a cell are separate wells, animals, samples, runs or records.

Block 1 — action: inhibitor; concentration: 20 µM
Target: Replicase polyprotein 1ab, nsp13 helicase (rep, Severe acute respiratory syndrome coronavirus 2, UniProt P0DTD1)
SMILES	inhibition
C=CC[N+]1([C@H]2C[C@H]3[C@@H]4CC[C@H]5C[C@H](O)[C@@H](N6CCOCC6)C[C@]5(C)[C@H]4CC[C@]3(C)[C@H]2OC(C)=O)CCCC1	3.46%
O=C(NC[C@H]1CN(c2ccc(N3CCOCC3=O)cc2)C(=O)O1)c1ccc(Cl)s1	2.95%
Cc1cc(O)c2c(=O)c3c(O)cc(O)c4c5c(O)cc(O)c6c(=O)c7c(O)cc(C)c8c1c2c(c34)c(c78)c65	1.52%
[N-]=[N+]=CC(=O)CC[C@H](N)C(=O)O	-6.29%
Cc1c[nH]c(=O)n(CCCN2CCN(c3ccccc3OCC(F)(F)F)CC2)c1=O	5.56%
Cc1cc(Nc2ncnc3ccc(NC4=NC(C)(C)CO4)cc23)ccc1Oc1ccn2ncnc2c1	5.82%
CN1CCc2cccc3c2[C@H]1Cc1ccc(O)c(O)c1-3	9.14%
NCCc1c[nH]cn1	4.82%
Nc1ccc(C(=O)NCC(=O)O)cc1	6.7%
COc1cc(OC)c(/C=C/S(=O)(=O)Cc2ccc(OC)c(OP(=O)(O)O)c2)c(OC)c1	-3.12%
C=C[C@@]1(C)CC(=O)[C@]2(O)[C@@]3(C)[C@@H](O)CCC(C)(C)[C@@H]3[C@H](O)[C@H](OC(C)=O)[C@@]2(C)O1	6.94% and -0.16%
CN1[C@H]2C[C@H](OC(=O)[C@H](CO)c3ccccc3)C[C@@H]1[C@@H](O)C2 (racemic)	-1.48%
CCCC[C@]1(CC)CS(=O)(=O)c2cc(CNC(CC(=O)O)CC(=O)O)c(OC)cc2[C@@H](c2ccccc2)N1	4.16%
CC(CN(C)C)CN1c2ccccc2CCc2ccccc21 (stereo not shown)	3.46%
COc1cc2ncc(-c3ccccc3)nc2cc1OC	1.42%
COC(=O)[C@@H]1[C@H]2C[C@H]3c4[nH]c5ccccc5c4CCN3C[C@@H]2CC[C@@H]1O	-3.73%
Cc1cc(C)nc(NS(=O)(=O)c2ccc(NC(=S)NC(=O)COc3ccc(Br)cc3Cl)cc2)n1	1.3%
CNCCc1ccc(O)c(O)c1	1.9%
COc1ccc2[nH]c3c(-c4cccc5ccccc45)nccc3c2c1	6.11%
Cc1c(Cn2c(C)nc3c(C(=O)O)cc(N4CCOCC4)cc32)cccc1C(F)(F)F	6.87%
Nc1ncnc2c1ncn2[C@@H]1O[C@H](CO)[C@@H](O)[C@H]1O	-0.24%
CCn1cc(C(=O)O)c(=O)c2cnc(N3CCNCC3)nc21	7.41%
COCCOCCOc1ccc(C2=N[C@@](C)(C(=O)O)CS2)c(O)c1	-2.98%
CC(=O)NCCc1c(Cc2ccccc2)[nH]c2ccccc12	-2.84%

Block 2 — technique: protein binding microarray; form: double-stranded DNA, one strand shown; medium: in vitro; concentration: not given; relative to: not given; reading: higher = stronger binding
Target: Histone acetyltransferase KAT6A, winged helix 1, GST fusion (KAT6A, Homo sapiens, UniProt Q92794, residues 1-85)
Setting: 8-mer, flanks averaged, mean of 2 arrays, mostly near background
Target sequence (chain): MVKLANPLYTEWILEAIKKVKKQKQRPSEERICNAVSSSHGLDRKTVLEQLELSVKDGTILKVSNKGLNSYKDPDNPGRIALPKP
Sequence	E-score
CGTCCACC	-0.0439
GGGTCCAC	0.0693
TACAGAAA	-0.147
AGAAATCC	0.0144
TTGCCAAA	-0.115
ATGCCTAA	-0.194
GAAGAGGC	0.0118
AGTATGAA	-0.0559

Block 3 — read-out: enzyme activity; action: inhibitor; concentration: 20 µM; setting: hit confirmation, no DTT
Target: Replicase polyprotein 1ab, main protease (rep, Severe acute respiratory syndrome coronavirus 2, UniProt P0DTD1)
Compound	inhibition [%]
Sc1nnnn1-c1ccccc1	110
O=[N+]([O-])C(Br)(CO)CO	100
CSc1ccc(C(=O)c2[nH]c(=O)[nH]c2C)cc1	68.4
c1cnc(SCc2cccnc2)nc1	98.1

Block 4 — technique: protein-binding microarray; form: double-stranded DNA, one strand shown; medium: in vitro; concentration: 250 nM; setting: 60-bp whole probe; with: salmon DNA 0.4 mg/ml; relative to: random background probes; reading: higher = stronger binding; constant ends, left off below: GCCTAGCAC … GTCTTGATTCGCTTGACGCTGCTG
Target: Interferon regulatory factor 7, full length, phosphomimetic (IRF7, Homo sapiens, UniProt Q92985, residues 1-503, S101K/S471D/S472D/S475D/S476D/S477D/S483D/S484D/S487D)
UniProt Q92985, sequence (whole entry, unmodified, looked up): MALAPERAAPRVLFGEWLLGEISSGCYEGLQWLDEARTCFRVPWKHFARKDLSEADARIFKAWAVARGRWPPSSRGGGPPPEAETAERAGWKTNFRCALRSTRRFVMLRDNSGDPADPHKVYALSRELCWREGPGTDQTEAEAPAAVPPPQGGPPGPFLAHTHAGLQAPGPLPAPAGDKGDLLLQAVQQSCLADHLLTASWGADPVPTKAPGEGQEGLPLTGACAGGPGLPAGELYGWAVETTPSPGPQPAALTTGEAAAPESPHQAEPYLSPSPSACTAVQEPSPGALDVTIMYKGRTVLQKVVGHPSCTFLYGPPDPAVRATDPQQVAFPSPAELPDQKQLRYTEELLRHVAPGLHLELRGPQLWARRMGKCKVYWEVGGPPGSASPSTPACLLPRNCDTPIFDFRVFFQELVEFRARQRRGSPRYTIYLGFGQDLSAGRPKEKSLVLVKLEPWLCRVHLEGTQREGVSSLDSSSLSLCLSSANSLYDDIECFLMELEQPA
Sequence	log fluorescence
GACGAACTGACTATCGAGACGTGCTAG	-0.262 z-score
TCATGTTTAAGAATGTTACTGTGCTAG	0.53 z-score
GACTGTTTCGGACTGGGGACGTGCTAG	1.4 z-score
AAGCCAGGACGAGCTCGCCTGTGCTAG	-0.736 z-score
TCATTTCTACGTCTGATACTGTGCTAG	1.08 z-score
TTATGTATCCTTATCCTTTAGTGCTAG	1.12 z-score
GTAGGTTTCGACACTGGGTTAGTGCTA	2.69 z-score
TCACCACCCGCTCTGGCACTGTGCTAG	-0.49 z-score

Block 5 — technique: universal PBM; form: double-stranded DNA, one strand shown; medium: in vitro; concentration: 600 nM; reading: higher = stronger binding
Target: Sal-like protein 4, full length isoform A (SALL4, Homo sapiens, UniProt Q9UJQ4, residues 1-1053)
UniProt Q9UJQ4, sequence (whole entry, looked up): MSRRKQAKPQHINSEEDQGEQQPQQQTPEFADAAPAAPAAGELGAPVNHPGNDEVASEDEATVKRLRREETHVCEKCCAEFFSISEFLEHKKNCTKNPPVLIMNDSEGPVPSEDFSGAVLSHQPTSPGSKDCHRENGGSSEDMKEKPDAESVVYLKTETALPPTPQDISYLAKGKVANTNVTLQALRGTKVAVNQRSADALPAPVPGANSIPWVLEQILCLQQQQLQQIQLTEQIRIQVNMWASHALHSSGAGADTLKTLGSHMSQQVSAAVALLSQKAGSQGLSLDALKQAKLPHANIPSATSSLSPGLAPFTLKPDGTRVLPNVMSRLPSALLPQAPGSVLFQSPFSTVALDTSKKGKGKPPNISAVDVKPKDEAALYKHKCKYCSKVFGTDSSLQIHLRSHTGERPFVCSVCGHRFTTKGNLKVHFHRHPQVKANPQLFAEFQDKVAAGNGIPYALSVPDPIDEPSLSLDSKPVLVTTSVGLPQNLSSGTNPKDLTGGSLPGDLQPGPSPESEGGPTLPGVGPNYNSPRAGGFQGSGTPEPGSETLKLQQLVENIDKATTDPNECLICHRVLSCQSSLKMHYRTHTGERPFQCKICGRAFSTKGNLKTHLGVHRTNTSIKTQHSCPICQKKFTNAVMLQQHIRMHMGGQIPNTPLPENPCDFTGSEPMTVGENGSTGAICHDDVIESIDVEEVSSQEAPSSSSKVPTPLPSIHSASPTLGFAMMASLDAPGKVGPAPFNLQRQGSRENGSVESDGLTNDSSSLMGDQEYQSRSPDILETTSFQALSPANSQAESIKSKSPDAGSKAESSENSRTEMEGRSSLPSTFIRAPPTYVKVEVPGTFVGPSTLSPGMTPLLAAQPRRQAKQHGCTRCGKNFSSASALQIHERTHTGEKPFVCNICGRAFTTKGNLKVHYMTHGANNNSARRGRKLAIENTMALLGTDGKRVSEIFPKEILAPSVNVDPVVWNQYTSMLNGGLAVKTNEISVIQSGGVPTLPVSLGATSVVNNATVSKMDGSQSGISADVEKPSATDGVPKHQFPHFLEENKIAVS
Setting: 8-mer, flanks averaged, mean of replicates
Sequence	E-score
AACCAAAG	0.129
CCCATAAG	0.0524
CTCGCTGA	-0.12
CGTGGGCC	-0.312
AACCTTGT	-0.0506
AAACCGGC	-0.371
TATAGCAA	0.269
ATAACTGG	0.231
